# Assay results collected from several papers.
# Compare with care: the assays were run in different laboratories. Numbers after ± are the reported error.
# Method: steady-state kinetics
# B1: sacB S422A (Priestia megaterium, UniProt D5DC07); chain KGNDSKDFNNSYGISHITRDNMVKIPQQQNSDQFKVPAFDESTIKNIASAKGKNASGNTIDLDVWDSWPLQNADGTVATYHGYQIVFALAGDPKDSNDTSVYLFYKKAGDKSIDSWKNAGRVFKDSDKFVPNDPHLKNQTQEWSGSGTLTKDGKVRLFYTDYSGKQYGKQTLTTAQVNMSQPNDNTLKVDGVEDYKSIFDGDGKIYQTVQQFIDEGGYDTGDNHTLRDPHYIEDNGHKYLVFEANTGTEDGYQGEDSLYNRAYYGGNNPFFQSEKKKLLEGSNKEKASLANGALGIIELNDDYTLKKVMKPLITSNTVTDEIERANIFKKDGKWYLFTDSRGSKMTIDGIGQDDVYMLGYVSNTLTGKYKPLNDTGLVLHMDLDPNDKTFTYAHFAVPQTKGDNVVITSYMTNRGFYEDNHSTFAPSFLVNIDGSKTSVVKDRVLEQGQLTVDED
# B2: ABHD14B (Homo sapiens, UniProt Q96IU4); chain MAASVEQREGTIQVQGQALFFREALPGSGQARFSVLLLHGIRFSSETWQNLGTLHRLAQAGYRAVAIDLPGLGHSKEAAAPAPIGELAPGSFLAAVVDALELGPPVVISPSLSGMYSLPFLTAPGSQLPGFVPVAPICTDKINAANYASVKTPALIVYGDQDPMGQTSFEHLKQLPNHRVLIMKGAGHPCYLDKPEEWHTGLLDFLQGLQ
# B3: ybiA (Escherichia coli, UniProt P30176); chain MPVRAQRIQHVMQDTIINFYSTSDDYGDFSNFAAWPIKVDGKTWPTSEHYFQAQKFLDEKYREEIRRVSSPMVAARMGRDRSKPLRKNWESVKEQVMRKALRAKFEQHAELRALLLATAPAKLVEHTENDAYWGDGGHGKGKNRLGYLLMELREQLAIEK
# B4: Alanine racemase (Geobacillus stearothermophilus, UniProt P10724); chain MNDFHRDTWAEVDLDAIYDNVENLRRLLPDDTHIMAVVKANAYGHGDVQVARTALEAGASRLAVAFLDEALALREKGIEAPILVLGASRPADAALAAQQRIALTVFRSDWLEEASALYSGPFPIHFHLKMDTGMGRLGVKDEEETKRIVALIERHPHFVLEGLYTHFATADEVNTDYFSYQYTRFLHMLEWLPSRPPLVHCANSAASLRFPDRTFNMVRFGIAMYGLAPSPGIKPLLPYPLKEAFSLHSRLVHVKKLQPGEKVSYGATYTAQTEEWIGTIPIGYADGWLRRLQHFHVLVDGQKAPIVGRICMDQCMIRLPGPLPVGTKVTLIGRQGDEVISIDDVARHLETINYEVPCTISYRVPRIFFRHKRIMEVRNAIGRGESSA
# B5: enzyme (Halalkalibacterium halodurans, UniProt Q9KCN8); chain MLNVTQLQEATTFIQQQIETKPTIGLILGSGLGILADEIEQPVKVPYSDIPHFPVSTVQGHAGQLVIGMLEGKQVIAMQGRFHFYEGYSLEVVTFPVRVMKALGVEQIIVTNAAGGVNESFEAGDLMIIRDHINNMAQNPLIGPNDEAFGVRFPDMSNAYSERLRTLAKEKGNTLNLKLQEGVYVANTGPVYETPAEVRMIRKLGGDAVGMSTVPEVIVARHAGLEVLGISCISNMAAGILPQPLSHDEVIETTERVRQDFLNLVKAIVKDM
# B6: protein (Streptomyces sp. NRRL 30471, UniProt F2WUC8); chain MVRADYRTPEVNDVVRYRYGAAETALLKNRISEFGFTMAEVPGECAPQTEIERLGKALGLGEPYVAALYQRGDTRAHGALYTDVRSRAHNTHPGFGTTEGQTIHVDGLLEPIGTIRTTILFCVRPAVSGGRTVLFNSSAAFETLRHSDPAAAESLRDPGVLRRRSTLPNVDAGHTGPAFAYDNGLLITRYSEGPTVEWNAPPGRSAELERALNFLRAAAEDKRYSIALRLGAGEALIFRNDVISHGREAYRDDPAAPRHLIRTLYLESP
# B7: enzyme A178R/D177A/G159A/M179S/P184R (Levilactobacillus brevis, UniProt Q03Q85); chain MKVTVVGCTHAGTFAIKQILAEHPDAEVTVYERNDVISFLSCGIALYLGGKVADPQGLFYSSPEELQKLGANVQMNHNVLAIDPDQKTVTVEDLTNHAQTTESYDKLVMTSGSWPIVPKIPGIDSDRVKLCKNWAHAQALIEDAKEAKRITVIGAGYIAAELAEAYSTTGHDVTLIARSARVMRKYFDADFTDVIEQDYRDHGVQLALGETVESFTDSATGLTIKTDKNSYETDLAILCIGFRPNTDLLKGKVDMAPNGAIITDDYMRSSNPDIFAAGDSAAVHYNPTHQNAYIPLATNAVRQGILVGKNLVKPTVKYMGTQSSSGLALYDRTIVSTGLTLAAAKQQGLNAEQVIVEDNYRPEFMPSTEPVLMSLVFDPDTHRILGGALMSKYDVSQSANTLSVCIQNENTIDDLAMVDMLFQPNFDRPFNYLNILAQAAQAKVAQSVNA
# B8: alanine racemase H127A/H166A/H200A (Geobacillus stearothermophilus, UniProt P10724); chain MNDFHRDTWAEVDLDAIYDNVENLRRLLPDDTHIMAVVKANAYGHGDVQVARTALEAGASRLAVAFLDEALALREKGIEAPILVLGASRPADAALAAQQRIALTVFRSDWLEEASALYSGPFPIHFALKMDTGMGRLGVKDEEETKRIVALIERHPHFVLEGLYTAFATADEVNTDYFSYQYTRFLHMLEWLPSRPPLVACANSAASLRFPDRTFNMVRFGIAMYGLAPSPGIKPLLPYPLKEAFSLHSRLVHVKKLQPGEKVSYGATYTAQTEEWIGTIPIGYADGWLRRLQHFHVLVDGQKAPIVGRICMDQCMIRLPGPLPVGTKVTLIGRQGDEVISIDDVARHLETINYEVPCTISYRVPRIFFRHKRIMEVRNAIGRGESSA
# B9: AtTPS18 G328P (Arabidopsis thaliana, UniProt Q9LUE2); chain STKSSDDLEGSRPSTYFSPSLWGDHFLSVSLDRGEFDELEREIETMKPLVKDMLMSSQSSDKEKIRLIHLLVSLGSSYHFDKEIQDILKHSFTKLDDIIVGEDDLETISIMFEVFRLYGHKMSCDAFDRFRGEDGRFKESLAKDVRGMLQLFEVAHLGTPSEDIMDEASSFAQNHLDSWIGGNVSGATPHLLKHIQNSLYIPRYCNIEVLVAREYISYYEQEEGHNKILLKFAKLNFNFCQFHYIQELKTLTKWWKDLDLASKLPYIRDRLVESHLPGLGPYFEPHYSLGRIIVAKIIMTMVVVDDTYDAHATVPEVAVLTECLQRLNIGADDKLPDYLRTVLESVFEVMGEIEQEMRPKGRSYGVKQVLERFKNVAKADKQLTEWARTGDVPSFDEYMKVGLVTAGMDGYAGYCFIGMEDVSEKEAFEWLSSNPLIIQALNVMFRLANDVGTYETEINRGEVANGLNCYMKQYGVTKEEASQELRKIYSNNKKVVMEEFMNSHDHVPRQVLLRCLNFARLFDVMYTEGDGYSEPKGKIEHFMTSLYVHPIPLS
# B10: CoA persulfide reductase CDR-RHD (Enterococcus faecalis, UniProt A0ACD6TF65); chain MKIVIIGGVAGGMSAATRLRRLMEDAEIVVMEKGPFVSFANCGLPYYVSGEIAEREQLLVQTPEALKARFNLDVRPHHEVVAIDPIEKVITVKHETEILTEHYDKLILSPGAKPFVPPITGLAEAKNVFSLRNVPDLDQIMTALTPETKRAVVIGAGFIGLEMAENLQKRGLEVTLVEKAPHVLPPLDEEMAAFVKAELSKNNVQVITGQSAVAFEEEGQVIRLEDGQTLASDLTILSVGVQPENTLAVEAGVATGLRGGIVVDEHYQTNQPDIYAVGDAIVVKQQITQEDALISLASPANRQGRQVADVIAGLERKNQGSIGTAIVRVFDLTAASTGLSERAAKAAGLTTAVVHISGKDHAGYYPGATDLQLKLVFHPTTGEIYGAQGIGAKGVDKRIDILATAIKGQLTIFDLPELEFTYAPPFGSAKDPVNMLGYAAMNLVEGLSENVQWYELSNELAKGAVLLDVRNPAERANGQFKNAVSIPLNELRERLEELDKSTEYIVSCHSGLRSYIAERMLKQAGISAKNLDGAFALYRMVKPEELENV
# B11: MTRR A129T (Homo sapiens, UniProt Q9UBK8); chain MRRFLLLYATQQGQAKAIAEEICEQAVVHGFSADLHCISESDKYDLKTETAPLVVVVSTTGTGDPPDTARKFVKEIQNQTLPVDFFAHLRYGLLGLGDSEYTYFCNGGKIIDKRLQELGARHFYDTGHTDDCVGLELVVEPWIAGLWPALRKHFRSSRGQEEISGALPVASPASSRTDLVKSELLHIESQVELLRFDDSGRKDSEVLKQNAVNSNQSNVVIEDFESSLTRSVPPLSQASLNIPGLPPEYLQVHLQESLGQEESQVSVTSADPVFQVPISKAVQLTTNDAIKTTLLVELDISNTDFSYQPGDAFSVICPNSDSEVQSLLQRLQLEDKREHCVLLKIKADTKKKGATLPQHIPAGCSLQFIFTWCLEIRAIPKKAFLRALVDYTSDSAEKRRLQELCSKQGAADYSRFVRDACACLLDLLLAFPSCQPPLSLLLEHLPKLQPRPYSCASSSLFHPGKLHFVFNIVEFLSTATTEVLRKGVCTGWLALLVASVLQPNIHASHEDSGKALAPKISISPRTTNSFHLPDDPSIPIIMVGPGTGIAPFIGFLQHREKLQEQHPDGNFGAMWLFFGCRHKDRDYLFRKELRHFLKHGILTHLKVSFSRDAPVGEEEAPAKYVQDNIQLHGQQVARILLQENGHIYVCGDAKNMAKDVHDALVQIISKEVGVEKLEAMKTLATLKEEKRYLQDIWS
# B12: Tat (Mus musculus, UniProt Q8QZR1); chain WNVRPSDMSNKTFNPIRAIVDNMKVKPNPNKTVISLSIGDPTVFGNLPTDPEVTQAMKDALDSGKYNGYAPSIGYLSSREEVASYYHCPEAPLEAKDVILTSGCSQAIELCLAVLANPGQNILIPRPGFSLYRTLAESMGIEVKLYNLLPEKSWEIDLKQLESLIDEKTACLVVNNPSNPCGSVFSKRHLQKILAVAERQCVPILADEIYGDMVFSDCKYEPMATLSTNVPILSCGGLAKRWLVPGWRLGWILIHDRRDIFGNEIRDGLVKLSQRILGPCTIVQGALKSILQRTPQEFYQDTLSFLKSNADLCYGALSAIPGLQPVRPSGAMYLMVGIEMEHFPEFENDVEFTERLIAEQSVHCLPATCFEYPNFFRVVITVPEVMMLEACSRIQEFCEQHY
# Chain of UniProt P45370 (whole entry, looked up): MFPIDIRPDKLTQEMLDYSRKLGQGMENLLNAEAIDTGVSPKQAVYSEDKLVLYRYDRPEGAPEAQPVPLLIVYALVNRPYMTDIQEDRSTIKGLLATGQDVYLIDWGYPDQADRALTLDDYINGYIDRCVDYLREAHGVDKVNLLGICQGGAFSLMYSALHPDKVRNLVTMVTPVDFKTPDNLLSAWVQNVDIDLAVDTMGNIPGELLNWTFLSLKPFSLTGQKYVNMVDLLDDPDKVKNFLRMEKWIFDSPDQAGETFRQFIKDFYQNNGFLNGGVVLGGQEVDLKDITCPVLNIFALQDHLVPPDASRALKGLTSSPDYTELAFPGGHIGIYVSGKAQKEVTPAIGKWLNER
Molecule,substrate,pH,temperature,notes,added,kcat [s⁻¹]
B1 (sacB S422A),OC[C@H]1O[C@@](CO)(O[C@H]2O[C@H](CO)[C@@H](O)[C@H](O)[C@H]2O)[C@@H](O)[C@@H]1O,pH 6.6,,,,97.9 ± 4
"enzyme (Actinoalloteichus caeruleus, UniProt M1F4W9)",CSc1c(O)cc(-c2ccccn2)nc1C(=O)N[C@@H](CC(C)C)C(=O)O,pH 8,30 °C,,,0.393 ± 0.0208
"alanine aminopeptidase (Neisseria meningitidis, UniProt Q9JYV4)",N=C(N)NCCC[C@H](N)C(=O)Nc1ccc2c(CC(N)=O)cc(=O)oc2c1,pH 7.5,37 °C,,,13.1 ± 0.6
B2 (ABHD14B),CC(=O)Oc1ccc([N+](=O)[O-])cc1,pH 8,37 °C,,,0.0367 ± 0.0133
B3 (ybiA),Nc1nc(N[C@@H]2O[C@H](COP(=O)(O)O)[C@@H](O)[C@H]2O)c(N)c(=O)[nH]1,pH 8,22 °C,substrate not purified,,0.006 ± 0.0002
B4 (Alanine racemase),C[C@H](N)C(=O)O,pH 8.9,25 °C,L to D direction,,1740
B5 (enzyme),OC[C@H]1O[C@@H](n2cnc3c(O)ncnc32)[C@H](O)[C@@H]1O,,,,,28000
B6 (protein),O=c1ccn([C@H]2C[C@H](O)[C@@H](COP(=O)(O)O)O2)c(=O)[nH]1,pH 7.5,30 °C,,"αKG 2 mM, ascorbic acid 2 mM, FeCl2 0.4 mM",2.3 ± 0.2
protein (UniProt M4ZR24),O=c1ccn([C@@H]2O[C@H](CO)[C@@H](O)[C@H]2O)c(=O)[nH]1,,,"phosphorolysis, single substrate",phosphate,0.015 ± 0.00167
B7,NC(=O)C1=CN([C@@H]2O[C@H](COP(=O)(O)OP(=O)(O)OC[C@H]3O[C@@H](n4cnc5c(N)ncnc54)[C@H](OP(=O)(O)O)[C@@H]3O)[C@@H](O)[C@H]2O)C=CC1,pH 7.5,37 °C,per site,,307 ± 68
B8,C[C@@H](N)C(=O)O,pH 9,room temperature,,NAD+ 10 mM,0.28
"enzyme (Plasmodium falciparum, UniProt Q8I302)",CC1=CC(=O)c2ccccc2C1=O,pH 8,100 °C,not purified,,0.0767 ± 0.00333
B9 (AtTPS18 G328P),CC(C)=CCC/C(C)=C/CC/C(C)=C/CC/C(C)=C/CC/C(C)=C/COP(=O)(O)OP(=O)(O)O,pH 7.5,30 °C,product C5 measured,Mg2+ 10 mM,0.047 ± 0.05
B10,CC(C)(COP(=O)(O)OP(=O)(O)OC[C@H]1O[C@@H](n2cnc3c(N)ncnc32)[C@H](O)[C@@H]1OP(=O)(O)O)[C@@H](O)C(=O)NCCC(=O)NCCSS,pH 8,25 °C,NaCl 200 mM,"FAD 100 nM, NADH 100 µM",4.9 ± 0.4
"protein (Allochromatium vinosum, UniProt P45370)",C=CC[C@@H](O)CC(=O)SCCNC(=O)CCNC(=O)[C@H](O)C(C)(C)COP(=O)(O)OP(=O)(O)OC[C@H]1O[C@@H](n2cnc3c(N)ncnc32)[C@H](O)[C@@H]1OP(=O)(O)O,pH 7.8,30 °C,,,12.7
B11 (MTRR A129T),O=C1C(Cl)=CC(=Nc2ccc(O)cc2)C=C1Cl,pH 7.5,37 °C,substoichiometric FMN,NADPH,0.058 ± 0.005
B12 (Tat),O=C(O)CCC(=O)C(=O)O,pH 7,38 °C,,PLP,25.7 ± 1.33

# Repeated from above:
Molecule,substrate,pH,temperature,notes,added,kcat [s⁻¹]
B9 (AtTPS18 G328P),CC(C)=CCC/C(C)=C/CC/C(C)=C/CC/C(C)=C/CC/C(C)=C/COP(=O)(O)OP(=O)(O)O,pH 7.5,30 °C,product C5 measured,Mg2+ 10 mM,0.047 ± 0.05
